# Measurements collected from several papers.
# Lines come from different studies, so protocols differ. Numbers after ± are the reported error. Where no end group is shown, it is not given here.
Substance,target or system,assay,test system,setting,scale,quantity,result
DHVFLRF-NH2 (C-amide),Drosophila melanogaster,heart rate,wandering third instar larval heart,"40 nL injected, 1 µM, 10 min",relative to: DMS,inhibition,150%
VRTRISGLY,rhesus rotavirus,viral replication,"peptide, mouse cholangiocytes","1 mM, cell pretreatment with peptide",relative to: serum-free medium,viral yield,no effect
CCCCCCOc1c(OC)cc(NC(C)CCCN)c2nc(C(C)(C)C)cc(C)c12 (centres unmarked),Staphylococcus aureus,microbial growth,ATCC33591 MRSA,drug-resistant strain,,IC50,2.75 µg/mL
CN[C@@](C)(C[18F])C(=O)O,,,"SCID mouse A549 xenograft, kidney","120 min, post injection",,tissue uptake,4.1 ± 0.9 %ID/g
CC[C@H](C)CCCCC(=O)N[C@@H](CCN)C(=O)N[C@H](C(=O)N[C@@H](CCN)C(=O)N[C@H]1CCNC(=O)[C@H]([C@@H](C)O)NC(=O)[C@H](CCN)NC(=O)[C@H](CCN)NC(=O)[C@H](CC(C)C)NC(=O)[C@@H](Cc2ccccc2)NC(=O)[C@H](CCN)NC1=O)[C@@H](C)O,Klebsiella pneumoniae,,human,"intravenous, 2 mg/kg every 12 h, with: amikacin once daily",,time to defervescence,≤ 24 h
OC[C@@H]1[C@@H](O)[C@H](O)[C@@H](O)CN1CCCCCCOc1cc(F)ccc1F,bovine viral diarrhea virus,,MDBK,22 h,,EC90,16 ± 7.9 µM
GFVRI-OH,Schistosoma mansoni,EthoVision motion tracking,"peptide, adult worm pairs","10 µM, 5 min, 37 °C",relative to: pretreatment mobility,change in mobility,-12.8 ± 3.88%
HVFLRF-NH2 (C-amide),Drosophila melanogaster,gut contraction,wandering third instar larval gut,"injection, 1 µM, within 10 min",relative to: DMS effect,inhibition,0%
O=C(CN1c2c(n[nH]c2-c2cccc(Cl)c2)-c2ccccc2S1(=O)=O)NN=Cc1c(Cl)cccc1Cl,HIV-1,viral replication,PBMC,,,EC90,41.5 µM
CP(=O)(O)CCC(N)C(=O)O (centres unmarked),Euphorbia heterophylla,,,"500 g/ha, 13 days, EPHHL, post-emergence spray","relative to: untreated (0%), complete kill (100%)",herbicidal activity,100%
CCCCCCOc1c(OC)cc(NC(C)CCCNC(=O)C(N)CCCN)c2nc(C(C)(C)C)ccc12 (centres unmarked),Staphylococcus aureus,bacterial growth,MRSA ATCC 33591,,,IC50,> 20 µg/mL
CCCCCn1c(=O)[nH]c2cc(C(=O)NCCCN3CCC(C)CC3)ccc2c1=O,Hepatitis C virus,"HCV infection, Gaussia luciferase reporter",Huh7.5.1 reporter cells,,"relative to: 10 µM cyclosporin A, DMSO, negative means inhibition",maximal response,-76%
CN[C@H](CC(C)C)C(=O)N[C@H]1C(=O)N[C@@H](CC(N)=O)C(=O)N[C@H]2C(=O)N[C@H]3C(=O)N[C@H](C(=O)N[C@H](C(=O)O)c4cc(O)cc(O)c4-c4cc3ccc4O)[C@H](O)c3ccc(c(Cl)c3)Oc3cc2cc(c3O[C@@H]2O[C@H](CO)[C@@H](O)[C@H](O)[C@H]2O[C@H]2C[C@](C)(N)[C@H](O)[C@H](C)O2)Oc2ccc(cc2Cl)[C@H]1O,vancomycin-resistant Enterococcus,,Galleria mellonella larvae,"20 mg/kg, day 7",,larval survival,40%
CCCCCCCCOc1c(OC)cc(NC(C)CCCNC(=O)C(N)Cc2ccccc2)c2nc(C(C)(C)C)ccc12 (centres unmarked),Staphylococcus aureus,,MRSA ATCC 33591,,,MBC,> 20 µg/mL
TFFRLFNRSFTGRRRRSVQWCA,Streptococcus sanguis,OD600,"peptide, ATCC 49295, 4 h single-species biofilm","128 µg/ml, 5 min exposure, OD600 read over 5 h",,biofilm growth,no effect
CC[C@H](C)CCCCC(=O)N[C@@H](CCN)C(=O)N[C@H](C(=O)N[C@@H](CCN)C(=O)N[C@H]1CCNC(=O)[C@H]([C@@H](C)O)NC(=O)[C@H](CCN)NC(=O)[C@H](CCN)NC(=O)[C@H](CC(C)C)NC(=O)[C@@H](Cc2ccccc2)NC(=O)[C@H](CCN)NC1=O)[C@@H](C)O,Klebsiella pneumoniae,,"carbapenem-resistant, human","inhaled plus intravenous, 25 mg inhaled plus 50 mg intravenous every 12 h, 5 d, with: amikacin",,microbiological response at end of treatment,negative
CCCCCCCOc1c(OC)cc(NC(C)CCCN)c2nc(C(C)(C)C)ccc12 (centres unmarked),Staphylococcus aureus,microbial growth,ATCC33591 MRSA,drug-resistant strain,,IC50,2.36 µg/mL
Cc1ccccc1-c1nc(CN2CCC(C(=O)NCCCN3CCCC3)CC2)c(C)o1,Hepatitis C virus,"HCV infection, Gaussia luciferase reporter",Huh7.5.1 reporter cells,,"relative to: 10 µM cyclosporin A, DMSO, negative means inhibition",maximal response,-75.4%
CC(C)n1ncc2c(C(=O)NCC3(C)CNC3)cc(C3CC3)nc21,Enterovirus D68,antiviral,"US/IL/14-18952, neonatal mice","intraperitoneal, 50 mg/kg daily, day 14 post-infection, immediate treatment",direction not given,paralysis score,0.4 ± 0.42
C=CCc1ccc(OC(=O)c2ccc([N+](=O)[O-])cc2)c(OC)c1,Spodoptera frugiperda,insecticidal activity,larvae,topical,,LD50,2030 mg/kg
Cc1nc(C(NC(=O)c2ccc(-c3ccc(Cl)cc3)[nH]2)C2CCCCN2)sc1CO (mixture of isomers),HIV-1,viral entry,"TZM-bl, panel of 56 Env pseudoviruses",up to 2 µM,,sensitive viruses,39%
C=C1[C@@H](C)[C@H]2[C@H](Cc3ccccc3)NC(=O)[C@]23[C@H](OC(C)=O)/C=C/[C@](C)(O)C[C@@H](C)C/C=C/[C@H]3[C@@H]1O,Phyllosticta citricarpa,,PDA plate,"100 µL of 10 mg/mL, 21 days, methanol solution",,mycelial growth,0.7 ± 0.2 cm
CC[C@H](C)CCCCC(=O)N[C@@H](CCN)C(=O)N[C@H](C(=O)N[C@@H](CCN)C(=O)N[C@H]1CCNC(=O)[C@H]([C@@H](C)O)NC(=O)[C@H](CCN)NC(=O)[C@H](CCN)NC(=O)[C@H](CC(C)C)NC(=O)[C@@H](CC(C)C)NC(=O)[C@H](CCN)NC1=O)[C@@H](C)O,Klebsiella pneumoniae,,"BNCC 353393, XDR, carbapenem-resistant, compound-resistant, neutropenic mice, thigh infection","subcutaneous, 20 mg/kg once daily",relative to: vehicle,reduction in bacterial burden,inactive
C=C(C)CNCC(=C)C.Oc1c(Cl)c(Cl)c(Cl)c(Cl)c1Cl,Candida albicans,"biofilm formation, XTT",SC5314,"24 h, 37 °C",,IC50,4.44 µM
CCCCCOc1c(OC)cc(NC(C)CCCNC(=O)C(N)Cc2cc3ccccc3[nH]2)c2nc(C(C)(C)C)ccc12 (centres unmarked),Staphylococcus aureus,microbial growth,ATCC33591 MRSA,drug-resistant strain,,IC50,1.95 µg/mL
CC(=NNC(=O)CN1c2c(-c3ccccc3)n[nH]c2-c2ccccc2S1(=O)=O)c1sc(N)nc1C,HIV-1,viral replication,PBMC,,,EC90,> 100 µM
CCCCCCCOc1c(OC)cc(NC(C)CCCNC(=O)C(N)CCCCN)c2nc(C(C)(C)C)ccc12 (centres unmarked),Staphylococcus aureus,,MRSA ATCC 33591,,,MBC,> 20 µg/mL
guanidine hydrochloride,Coxsackievirus B3,CPE inhibition,"HeLa, Nancy",48 h,,IC50,423 µM
COC(=O)[C@H](CO)NC(C)=C1C(=O)C=C2Oc3c(C(C)=O)c(O)c(C)c(O)c3[C@@]2(C)C1=O,Candida tropicalis,broth microdilution,ATCC 750 fluconazole and amphotericin B resistant,24 and 48 h,,MIC99,6.7 µM
CC[C@H](C)[C@H](NC(=O)[C@H](CCCCN)NC(=O)[C@H](CCC(=O)O)NC(=O)[C@H](CCCCN)NC(=O)[C@H](CO)NC(=O)[C@H](CCCCN)NC(=O)[C@H](CCCNC(=N)N)NC(=O)[C@H](Cc1ccccc1)NC(=O)[C@H](Cc1ccccc1)NC(=O)[C@H](CC(=O)O)NC(=O)CNC(=O)[C@H](CC(C)C)NC(=O)[C@@H](N)CC(C)C)C(=O)NCC(=O)N[C@@H](CCCCN)C(=O)N[C@@H](CCC(=O)O)C(=O)N[C@@H](Cc1ccccc1)C(=O)N[C@@H](CCCCN)C(=O)N[C@@H](CCCNC(=N)N)C(=O)N[C@H](C(=O)N[C@H](C(=O)N[C@@H](CCC(N)=O)C(=O)N[C@@H](CCCNC(=N)N)C(=O)N[C@H](C(=O)N[C@@H](CCCCN)C(=O)N[C@@H](CC(=O)O)C(=O)N[C@@H](Cc1ccccc1)C(=O)N[C@@H](CC(C)C)C(=O)N[C@@H](CCCNC(=N)N)C(=O)N[C@@H](CC(N)=O)C(=O)N[C@@H](CC(C)C)C(=O)N[C@H](C(=O)N1CCC[C@H]1C(=O)N[C@@H](CCCNC(=N)N)C(=O)N[C@H](C(=O)N[C@@H](CCC(=O)O)C(=O)N[C@@H](CO)C(=O)O)[C@@H](C)O)C(C)C)[C@@H](C)CC)C(C)C)[C@@H](C)CC,Staphylococcus aureus,,JE2 SAUSA300_1255 mprF transposon mutant,12.5% TSB,relative to: wild type over mutant,MIC ratio,2 fold
MRTRVSGLY,rhesus rotavirus,viral replication,"peptide, mouse cholangiocytes","1 mM, cell pretreatment with peptide",relative to: serum-free medium,viral yield,no effect
CC(=NNC(=O)CN1c2c(-c3ccccc3)n[nH]c2-c2ccccc2S1(=O)=O)c1ccc([N+](=O)[O-])s1,HIV-1,viral replication,PBMC,,,EC90,> 100 µM

# Some of these lines once more:
Substance,target or system,assay,test system,setting,scale,quantity,result
CCCCCCOc1c(OC)cc(NC(C)CCCNC(=O)C(N)CCCN)c2nc(C(C)(C)C)ccc12 (centres unmarked),Staphylococcus aureus,bacterial growth,MRSA ATCC 33591,,,IC50,> 20 µg/mL
CCCCCn1c(=O)[nH]c2cc(C(=O)NCCCN3CCC(C)CC3)ccc2c1=O,Hepatitis C virus,"HCV infection, Gaussia luciferase reporter",Huh7.5.1 reporter cells,,"relative to: 10 µM cyclosporin A, DMSO, negative means inhibition",maximal response,-76%
CN[C@H](CC(C)C)C(=O)N[C@H]1C(=O)N[C@@H](CC(N)=O)C(=O)N[C@H]2C(=O)N[C@H]3C(=O)N[C@H](C(=O)N[C@H](C(=O)O)c4cc(O)cc(O)c4-c4cc3ccc4O)[C@H](O)c3ccc(c(Cl)c3)Oc3cc2cc(c3O[C@@H]2O[C@H](CO)[C@@H](O)[C@H](O)[C@H]2O[C@H]2C[C@](C)(N)[C@H](O)[C@H](C)O2)Oc2ccc(cc2Cl)[C@H]1O,vancomycin-resistant Enterococcus,,Galleria mellonella larvae,"20 mg/kg, day 7",,larval survival,40%
CCCCCCCCOc1c(OC)cc(NC(C)CCCNC(=O)C(N)Cc2ccccc2)c2nc(C(C)(C)C)ccc12 (centres unmarked),Staphylococcus aureus,,MRSA ATCC 33591,,,MBC,> 20 µg/mL
TFFRLFNRSFTGRRRRSVQWCA,Streptococcus sanguis,OD600,"peptide, ATCC 49295, 4 h single-species biofilm","128 µg/ml, 5 min exposure, OD600 read over 5 h",,biofilm growth,no effect
